Measurements from different studies.
Protocols differ between the studies behind these lines.
Route: intravenous

O=C(Nc1nc2cc(C(F)(F)F)cc(NC3CC3)n2n1)c1cccnc1
clearance (male Sprague-Dawley rat, plasma; 0.6 mg/kg): 18.3 mL/min/kg

Cn1cc(-c2cc(N3CCCCS3(=O)=O)ccc2N[C@H]2CC[C@H](C)CC2)c2cc[nH]c2c1=O (stereo in doubt)
clearance (Sprague-Dawley rat, plasma; 1 mg/kg): 59.2 mL/min/kg

Cc1ccc(OCC(=O)N(Cc2cccs2)c2ccn[nH]2)cc1
clearance (female Sprague-Dawley rat, plasma; 1 mg/kg, single dose): 56.4 mL/min/kg

COc1ccc(COc2c(OC)ccc3c2C[C@@H](C(=O)O)N(c2nc4ccc(F)cc4o2)C3)cn1
clearance (male Sprague-Dawley rat, plasma; 1 mg/kg): 5 mL/min/kg

CSCOC1C(=O)C2(C)C(OCSC)CC3OCC3(OC(C)=O)C2C(OC(=O)c2ccccc2)C2(O)CC(OC(=O)C(O)C(C=C(C)C)NC(=O)OC(C)(C)C)C(C)=C1C2(C)C (stereo not shown)
clearance (male Sprague-Dawley rat, plasma; 2 mg/kg): 127 mL/min/kg

O=c1c(-c2cccnc2)c[nH]n1-c1ccc(CO)cn1
clearance (rat, blood; 1.8 mg/kg): 25 mL/min/kg

COc1ccc(S(=O)(=O)N2CCc3ccccc3C2)cc1N1CCN(C(=O)c2ccc(F)cc2C(F)(F)F)CC1
clearance (rat, plasma; 10 mg/kg, single dose): 97.1 mL/min/kg

CC12CC3CC(C)(C1)CC(NC(=O)Nc1ccc(C(=O)N4CCCC(C(N)=O)C4)cc1)(C3)C2 (stereo not shown)
clearance (Sprague-Dawley rat, plasma; 10 mg/kg): 12.5 mL/min

COc1ccc2c(c1OCc1ccccc1)C[C@@H](C(=O)O)N(c1nc3ccc(F)cc3o1)C2
clearance (male Sprague-Dawley rat, plasma; 1 mg/kg): 2.1 mL/min/kg

CC(C)(C)C(=O)Nc1ccc2[nH]c(CN3CCC(N(CCCN4CCOCC4)CC4OC(n5cnc6c(N)ncnc65)C(O)C4O)CC3)nc2c1 (stereo not shown)
clearance (male Sprague-Dawley rat, plasma; 20 mg/kg): 123 mL/min/kg

Cc1cc(N2CCC(C#N)(C3(C)CC3)C2=O)cc(C(=O)NCc2cc(F)cc(-c3cnn(C)c3)c2)n1 (racemic)
clearance (male Sprague-Dawley rat, plasma; 0.9 mg/kg): 7.2 mL/min/kg

COC(=O)c1ccc2c(c1)NC(=O)/C2=C(\Nc1ccc2c(c1)CCN2C(=O)CN1CCOCC1)c1ccccc1
clearance (Sprague-Dawley rat, blood; 2 mg/kg): 13.8 mL/min/kg

N[C@H](COc1ccccc1C(F)(F)F)c1ccccc1
clearance (rat, plasma; 5 mg/kg): 167 mL/min/kg

Repeated from above:
O=c1c(-c2cccnc2)c[nH]n1-c1ccc(CO)cn1
clearance (rat, blood; 1.8 mg/kg): 25 mL/min/kg

COc1ccc(S(=O)(=O)N2CCc3ccccc3C2)cc1N1CCN(C(=O)c2ccc(F)cc2C(F)(F)F)CC1
clearance (rat, plasma; 10 mg/kg, single dose): 97.1 mL/min/kg
